Measured values gathered from unrelated publications.
Compare with care: the assays were run in different laboratories. ± gives the spread as reported.

With `C/C(=N\OCCCN1CCOCC1)c1ccc(C(F)(F)F)cc1` the remaining compound was 64.5% (human liver microsomes; 30 min).
The remaining compound of `CCCCN1C(=O)c2cccc3c(N4CC[N+](C)(C5OC(C(=O)O)C(O)C(O)C5O)CC4)ccc(c23)C1=O` (stereo not drawn) is reported as 99.8% (human liver microsomes; 775.87 nM, 48 h, 4 °C).
`CC(C)(C)[C@H](NC(=O)c1ccc(Oc2ccc(C(=O)N[C@H]3CCCC[C@@H]3O)cc2)cc1)C(=O)NCCN1CCCC1` has a remaining compound of 112% (mouse liver microsomes; 1 µM, 10 min, pH 7.4).
With `Cc1c(-c2c3c(N)n[nH]c(=O)c3nn2-c2ccc(NC(=O)/C=C/CN(C)C)cc2)oc2cc(F)ccc12` the remaining compound was 80.3% (BALB/c nude mouse whole blood; 1 µM, 0.5 h, 37 °C).
The remaining compound of `Cc1ccc(C(C)C)cc1.[Cl-].[Cl-].[Ru+2].c1ccc(P(=Nc2cccc3cccnc23)(c2ccccc2)c2ccccc2)cc1` is reported as over 99% (DMSO-d6; 1.5 months).
`O=Cn1nnc2ccccc21` has a remaining compound of 82% (HPLC-MS; HEPES buffer; 1 h, pH 7.4).
For `C=C(NC(=O)c1csc(-c2nc3c(cc2O)-c2nc(cs2)C(=O)NC(C(C)O)C(=O)NC(=C(C)OC)c2nc(cs2)C(=O)NC2c4nc(cs4)C(=O)NC(COC(=O)c4c5c6c(cccc6n4O)COC(=O)C(OC4CC(C)(O)C(N(C)C)C(C)O4)C2OC5)c2nc-3cs2)n1)C(N)=O` (stereo not drawn), the remaining compound was over 90% (dog liver microsomes; 2 µM, 60 min, with: NADPH).
The remaining compound of `COc1cc(-c2cncc(-c3ccc(N4CCNCC4)cc3)c2C)cc(OC)c1F` is reported as 84% (human liver microsomes; 1 µM, 1 h, pH 7.4).
For `O=C(N1CCCCC1)C12CC(c3ccccc3)(C1)C2(F)F`, the remaining compound was 100% (pooled human liver microsomes; 2 µM, 40 min, without NADPH).
`COc1cc(-c2cncc(-c3ccc(N4CCN(C)CC4)cc3)c2C)cc(OC)c1OC` has a remaining compound of 38% (human liver microsomes; 1 µM, 1 h, pH 7.4).
`[2H]C1([2H])C[C@@H](C[C@@H](C#N)NC(=O)[C@@H]2[C@@H]3[C@H](CN2C(=O)[C@@H](NC(=O)C(F)(F)F)C(C)(C)C)C3(C)C)C(=O)N1` has a remaining compound of 7.4% (mouse liver microsomes; 60 min, with: NADPH).
With `CCN(CC)C(=O)c1ccc(-c2cc(NCCCN3CCCCC3)c3ccccc3n2)cc1` the remaining compound was 95.3% (human liver microsomes; 1 h).
With `CCN(CC)c1ccc2cc(C(=O)ON3C(=O)CCC3=O)c(=O)oc2c1` the remaining compound was 0% (HEPES buffer; 20 h, pH 7.4).
With `O=C1CC[C@H](N2Cc3cc(-c4ccn5ncc(Cl)c5n4)ccc3C2=O)C(=O)N1` the remaining compound was 96.3% (human liver microsomes; 1 µM, 5 min).
`Cc1cnc(Nc2ccc(C3CCN(C)CC3)c(F)c2)nc1Nc1ccc(Cl)c(NS(=O)(=O)C(C)(C)C)c1` has a remaining compound of 43% (human liver microsomes; 1 µM, 1 h).
`Cc1ccc2oc(-c3c4c(N)n[nH]c(=O)c4nn3-c3ccc(NC(=O)/C=C/CN(C)C)cc3)c(C)c2c1` gave a remaining compound of 61.9% (BALB/c nude mouse whole blood; 1 µM, 1 h, 37 °C).
With `O=C(C(=O)c1ccccc1)C(=O)c1ccccc1` the remaining compound was 66% (HPLC-MS; HEPES buffer; 1 h, pH 7.4).
`C[C@](C(=O)NC1CCC(F)(F)CC1)(c1cncnc1)N(C(=O)[C@H](F)Cl)c1ccc(OC(F)(F)F)cc1` gave a remaining compound of 11.6% (human liver microsomes; concentration not given, 0.5 h, pH 7.4).
For `[2H]C1([2H])CC[C@@H](C[C@@H](C#N)NC(=O)[C@@H]2[C@@H]3[C@H](CN2C(=O)[C@@H](NC(=O)C(F)(F)F)C(C)(C)C)C3(C)C)C(=O)N1`, the remaining compound was 102% (human liver microsomes; 60 min).
The remaining compound of `Nc1nc(-c2ccccc2)nc2[nH]nc(Nc3ccccc3)c12` is reported as 17% (human liver microsomes; time not given, metabolic stability).
`CC[C@H](C)[C@H](NC(=O)[C@@H](NC(=O)[C@H](CCC(=O)O)NC(=O)[C@H](C)NC(=O)[C@H](C)NC(=O)[C@H](CCC(=O)O)NC(=O)[C@H](Cc1ccc2ccccc2c1)NC(=O)[C@H](Cc1ccc(OCc2ccccc2[N+](=O)[O-])cc1)NC(=O)[C@@H](NC(=O)[C@@H](NC(=O)[C@H](CCCNC(=N)N)NC(=O)[C@H](C)NC(=O)[C@H](CC(N)=O)NC(=O)[C@H](CCCCN)NC(=O)[C@H](CCCNC(=N)N)NC(=O)[C@H](CCCCN)NC(=O)[C@H](CCCNC(=N)N)NC(=O)[C@H](CCCCN)NC(=O)[C@@H]1CCCN1C(=O)[C@H](CCCNC(=N)N)NC(=O)[C@H](CCCCN)NC(=O)[C@H](CCCNC(=N)N)NC(=O)[C@H](CCCNC(=N)N)NC(C)=O)C(C)C)[C@@H](C)O)[C@@H](C)CC)C(N)=O` has a remaining compound of 99% (HPLC; dark; 24 h).
With `O=C(CNC(=O)c1cccc(NC2=NCCCN2)c1)NC[C@H](NC(=O)c1c(Cl)cc(-c2ccccc2)cc1Cl)C(=O)O` the remaining compound was 92% (mouse liver microsomes; 45 min).
`O=Cc1cc(C(F)(F)F)ccc1B(O)O` gave a remaining compound of 95% (HEPES buffer; 20 h, pH 7.4).
The remaining compound of `Cc1nc2ccc(S(=O)(=O)n3nc(SCc4ccc(Cl)cc4)nc3N)cc2s1` is reported as 10% (human plasma; 24 h).
`Cc1cc(C)nc(NC(=S)N2CCN(Cc3ccc(C(F)(F)F)cc3)CC2)c1` has a remaining compound of 105 ± 15% (rat liver microsomes; 15 min).
`O=CC1C(=O)Nc2ccccc21` (stereo not drawn) has a remaining compound of 97% (HPLC-MS; HEPES buffer; 1 h, pH 7.4).
`C=CC(=O)Nc1ccc(-n2nc3c(=O)[nH]nc(N)c3c2-c2oc3ccc(Br)cc3c2C)cc1` gave a remaining compound of 28.4% (BALB/c nude mouse whole blood; 1 µM, 5 h, 37 °C).
`C=CC(=O)Nc1cccc(Cn2ncc3cnc(Nc4cnn(CCOC)c4)nc32)c1` gave a remaining compound of 100% (Beagle dog whole blood; 5 µM, 0 min).
The remaining compound of `Cc1ccc(-c2nc(N)c3c(Nc4ccc(F)cc4)n[nH]c3n2)cc1` is reported as 12% (human liver microsomes; time not given, metabolic stability).
The remaining compound of `O=S(=O)(Cl)c1cc(C(F)(F)F)cc(C(F)(F)F)c1` is reported as 8% (HPLC-MS; HEPES buffer; 1 h, pH 7.4).
`CO[C@@H](C[C@H]1C(C)=CC[C@@H]2[C@]3(C)C[C@H](O[C@@H]4O[C@@H](C)[C@H](O)[C@@H](O)[C@H]4O)[C@@H](O)C(C)(C)[C@H]3CC[C@]21C)[C@H](N)C(=O)O` has a remaining compound of 98.9% (simulated gastric fluid with pepsin; 1 µM, 30 min, pH 1.2).
The remaining compound of `C=CC(=O)Nc1ccc(-n2nc3c(=O)[nH]nc(N)c3c2-c2oc3ccc(C)cc3c2C)cc1` is reported as 50.3% (BALB/c nude mouse whole blood; 1 µM, 2 h, 37 °C).
The remaining compound of `O=C(NC1CCC(F)(F)CC1)C(c1cncnc1)N(C(=O)C(F)Cl)c1ccc(-c2cncs2)cc1` (stereo not drawn) is reported as 89% (human liver microsomes; concentration not given, 0.08333 h, pH 7.4).
`CC(C)(C)[C@H](NC(=O)C(F)F)C(=O)N1C[C@H]2[C@@H]([C@H]1C(=O)N[C@H](C#N)C[C@@H]1CCCNC1=O)C2(C)C` gave a remaining compound of 7.6% (mouse liver microsomes; 60 min, with: NADPH).
For `O=S(=O)(N[C@H]1CCO[C@@H](C2c3ccccc3CCc3ccccc32)C1)c1ccc(OC(F)(F)F)cc1`, the remaining compound was 53% (liver microsomes; 10 µM, 30 min).
With `O=C(NC1CCC(F)(F)CC1)C(c1cncnc1)N(C(=O)C(F)Cl)c1ccc(OC(F)(F)F)cc1` (stereo not drawn) the remaining compound was 98.5% (human liver microsomes; concentration not given, 0.25 h, pH 7.4).
The remaining compound of `O=C(O)C(Cc1c[nH]c2ccccc12)Nc1ccccc1` (stereo not drawn) is reported as 79.9% (human liver microsomes; 1.5 µM, 120 min, pH 7.4, mean of replicates; reference: 0 min).
For `C=CC(=O)Nc1ccc(-n2nc3c(=O)[nH]nc(N)c3c2-c2oc3cc(F)ccc3c2C)cc1`, the remaining compound was 85.2% (BALB/c nude mouse whole blood; 1 µM, 0.5 h, 37 °C).
`Cl.NCc1ccc2c(c1)CN(C1CCC(=O)NC1=O)C2=O` (stereo not drawn) gave a remaining compound of under 1% (male Göttingen minipig, whole blood; 3 h).
With `C=CC(=O)NCc1ccc(-n2nc3c(=O)[nH]nc(N)c3c2-c2oc3ccc(C)cc3c2C)cc1` the remaining compound was 91.9% (BALB/c nude mouse whole blood; 1 µM, 2 h, 37 °C).
`Cc1onc(-c2ccccc2)c1-c1ccc(S(=O)(=O)Cl)cc1` has a remaining compound of 66% (HPLC-MS; HEPES buffer; 1 h, pH 7.4).
`c1ccc(-c2cc3cn[nH]c3nn2)cc1` has a remaining compound of 76.3% (LC-MS/MS; mouse liver S9 fraction, 0.25 mg/mL; 3 µM, 30 min, with: NADPH 1 mM).
For `CCOC(=O)c1c(C(=O)OC)cn(CC(c2cn(C)c3ccccc23)c2cn(C)c3ccccc23)c1C`, the remaining compound was 98.4% (HPLC-ESI-MS; EMEM cell medium; 24 h, 37 °C).
`CN(Cc1cc(C2CC2)on1)C(=O)c1cccc(-c2ccc(F)cc2)c1` gave a remaining compound of 91.7% (human liver microsomes; 2 µM, 15 min, pH 7.5, with: 1-aminobenzotriazole).
With `Cc1ccc(OCC(=O)N(Cc2cccs2)c2ccn[nH]2)cc1` the remaining compound was 67.3% (Sprague-Dawley rat liver microsomes; 10 µM, 60 min, without NADPH).

Repeated from above:
With `O=C1CC[C@H](N2Cc3cc(-c4ccn5ncc(Cl)c5n4)ccc3C2=O)C(=O)N1` the remaining compound was 96.3% (human liver microsomes; 1 µM, 5 min).
`Cc1cnc(Nc2ccc(C3CCN(C)CC3)c(F)c2)nc1Nc1ccc(Cl)c(NS(=O)(=O)C(C)(C)C)c1` has a remaining compound of 43% (human liver microsomes; 1 µM, 1 h).
`Cc1ccc2oc(-c3c4c(N)n[nH]c(=O)c4nn3-c3ccc(NC(=O)/C=C/CN(C)C)cc3)c(C)c2c1` gave a remaining compound of 61.9% (BALB/c nude mouse whole blood; 1 µM, 1 h, 37 °C).
With `O=C(C(=O)c1ccccc1)C(=O)c1ccccc1` the remaining compound was 66% (HPLC-MS; HEPES buffer; 1 h, pH 7.4).
`C[C@](C(=O)NC1CCC(F)(F)CC1)(c1cncnc1)N(C(=O)[C@H](F)Cl)c1ccc(OC(F)(F)F)cc1` gave a remaining compound of 11.6% (human liver microsomes; concentration not given, 0.5 h, pH 7.4).
For `[2H]C1([2H])CC[C@@H](C[C@@H](C#N)NC(=O)[C@@H]2[C@@H]3[C@H](CN2C(=O)[C@@H](NC(=O)C(F)(F)F)C(C)(C)C)C3(C)C)C(=O)N1`, the remaining compound was 102% (human liver microsomes; 60 min).
